Results collected from several papers.
Parts stem from different laboratories: compare values within a part only. Positions count from the first letter of the parent shown.

Set 1
Target: CCNB3, cyclin fold, Cln2 fusion (human)
Technique: yeast growth competition, sequencing
Medium: yeast
Notes: strong parent motif
Reference: not given
Reading: higher = stronger binding
Measurement: normalised enrichment score
Starting sequence: RBL2 docking peptide (human); STTRRRLFVENDS; partner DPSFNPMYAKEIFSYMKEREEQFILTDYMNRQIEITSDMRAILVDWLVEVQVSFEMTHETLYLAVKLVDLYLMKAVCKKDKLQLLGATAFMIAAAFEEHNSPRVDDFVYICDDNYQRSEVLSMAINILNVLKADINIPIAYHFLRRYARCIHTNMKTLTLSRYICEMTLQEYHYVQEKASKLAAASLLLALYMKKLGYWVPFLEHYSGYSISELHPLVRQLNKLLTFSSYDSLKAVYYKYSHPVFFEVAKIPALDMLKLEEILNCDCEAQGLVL
STTRRALFVENDS [R6A]: 0.45
STTRRRLFVENDF [S13F]: 1.18
STTRRELFVENDS [R6E]: 0.297
STTRRRLFVENDV [S13V]: 0.706
STTRRRLKVENDS [F8K]: -0.305
STTRRRCFVENDS [L7C]: 0.0828
STVRRRLFVENDS [T3V]: 3.08
STTRRRLFVENDL [S13L]: 0.989
SMTRRRLFVENDS [T2M]: 1.14
STKRRRLFVENDS [T3K]: -0.0387
STTGRRLFVENDS [R4G]: -0.23
STTRRRWFVENDS [L7W]: 0.0391
STHRRRLFVENDS [T3H]: -0.17
STTRRRLFVKNDS [E10K]: 0.158
STTRRRLFVVNDS [E10V]: 1.02
CTTRRRLFVENDS [S1C]: 1.68
STTRRRLFVENDD [S13D]: 1.15
MTTRRRLFVENDS [S1M]: 0.663
STTRRNLFVENDS [R6N]: 0.302
STTRSRLFVENDS [R5S]: 0.438
STTRRRLFVFNDS [E10F]: 0.655
STTRKRLFVENDS [R5K]: 0.506
STTRRRLRVENDS [F8R]: -0.12
STTRKRLLVENDS [R5K F8L]: -0.0737
STTRRRLFVENPS [D12P]: 1.16

Set 2
Target: CREBL2, bZIP domain (human)
Technique: DHFR protein complementation
Medium: yeast
Notes: single substitutions, most at no-binding floor
Reference: wild-type JUN-FOS pair
Reading: higher = stronger binding
Measurement: binding fitness
Starting sequence: JUN, bZIP domain (human); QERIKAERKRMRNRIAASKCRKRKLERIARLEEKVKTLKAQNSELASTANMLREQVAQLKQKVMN; partner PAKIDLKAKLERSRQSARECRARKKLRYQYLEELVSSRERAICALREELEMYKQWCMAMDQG
L31M: -1.48 natural log
Q41W: -1.5 natural log
V35E: -1.57 natural log
R53N: -1.25 natural log
A29T: -1.45 natural log
A29S: -1.48 natural log
A57R: -1.09 natural log
T37S: -1.44 natural log
E33Q: -1.41 natural log
S47L: -1.53 natural log
K39P: -1.5 natural log
N42P: -1.49 natural log
A49Y: -1.4 natural log
L45S: -1.57 natural log
N42R: -1.48 natural log
M51R: -1.37 natural log
L31Q: -1.56 natural log
Q55H: -1.53 natural log
E32R: -1.48 natural log
N42Y: -1.58 natural log
K39Q: -1.15 natural log
S43Y: -1.44 natural log
T48A: -1.32 natural log
R30T: -1.35 natural log
R53A: -1.53 natural log

Set 3
Target: RING finger protein unkempt homolog, zinc fingers 1-6, GST-SBP tag (UNK, Homo sapiens, UniProt Q9C0B0, residues 30-357)
Technique: RNA Bind-n-Seq
Molecule type: RNA
Medium: in vitro
Tested at: not given
Notes: RNA with constant flanks, ends assumed
Reference: input RNA pool
Reading: higher = stronger binding
Measurement: bound/input enrichment
All sequences stand within: GGGAGUUCUACAGUCCGACGAUC … CAACAGAGGAUUGAGCAUCA
Target sequence (chain): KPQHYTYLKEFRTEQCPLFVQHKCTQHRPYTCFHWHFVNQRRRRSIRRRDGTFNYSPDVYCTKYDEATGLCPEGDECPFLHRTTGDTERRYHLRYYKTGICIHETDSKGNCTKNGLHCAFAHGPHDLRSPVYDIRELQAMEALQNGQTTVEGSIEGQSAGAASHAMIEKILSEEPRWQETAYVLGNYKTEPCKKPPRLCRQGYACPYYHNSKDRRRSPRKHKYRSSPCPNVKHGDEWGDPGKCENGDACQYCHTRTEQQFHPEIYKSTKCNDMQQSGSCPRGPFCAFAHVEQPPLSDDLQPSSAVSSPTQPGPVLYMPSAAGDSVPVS
AUAUGACUAGCAAGCUAGCUGUUUUUAAUCUCUUCUGCAAGUUUGGUGAUCCGUGUGGUUCCGCCGAGAUAUUAAAAUUAUUAAAAAUACUAUGUUGAUUUCAGAAGAGACUAGCUUUGU: 1.45 ratio
UAACCACAUCAAGAUGGUUGGAAAGCUGAAGCAGAACUUACUAUUGGCAUGUCUGGUGAUCCGUUCUGUGACUGUGUUUUACCUGGGCCAGCAUGCCAUGGAAUGCCAUCACCGGAUAGA: 0.092 ratio
UACAUGUUUUCUCUUGUGCAUCAAUUUAAAUGUUACAACCAUGUAAACUACUUCUCUUGUCCGACCGAUUUUCACCUAGACUUUUUUUCCCAAAUCAGAAAAAAAAUACACACUAAAUAA: 0.602 ratio
AGUUUAAGCCUGACACACAGGCUUUGGUCCUCACUGAGCUGUCUCCAAGACUGGAACUACUCCGUGACUCGGCAAAUUUUCUGCCCCCCACCCCUCAUCAAAGCUGCUAGUUCAGAUGUU: 1.5 ratio
GAAUUCAUGCAUGAGACCCAUGAUGGAGUCCAGGAUAUGGCUUGUGAUACUUUCAUUAAAACCGCCCAAAAAUGCCGCAGGCAUUUCGUUCAGGUUCAGGUUGGAGAAGUGAUGCCAUUU: 0.178 ratio
AGGAUAGUAAGUUCAGCUAAUGAACAAAAAAGAUUUGAGUUCUUGGUUUGGGCUAAAACUACCGAGAGAUCAUGCCCUUUUGUACGGUGCAGGUUAUUGUCAUUCGACCGAUAACUUAUU: 0.113 ratio
GUAUAUAUUUCCAGGCUGCAUCUUCAGCCUGAUAUGUACUUUGUAGUUGCAACAGCGCCCCCGGUGCCCUAUGGCCCACCAAGUUUGAGGAGGGUGGUGCUUUCCGGAUUGAGCCUGGGC: 0.156 ratio
GAGAGCUGCCUGGUGUCAGGUAGAGAGGACACUGUACCUGGGUGAAUGAUCAGACCCUGGCCGCUAAGAAGGAACUUGUCCCUUUGAGUCAGUGUGCAGACCCCCUUUCAGGCCAUGCCU: 0.115 ratio
UGAUUUGCAAGUGGGGGGGAAAGCUACUGUGAGCGUGUGUUUUAUUUUUUAAAUUACACUACCGAGUGAUUUCCCCCCCCCCCCAAUGUCAAGUUUUUACCCUGCAUGUACUGGAGUAUU: 0.962 ratio
GAAGGUUUCUUUACCAACGGUUUGACUCUUGGCGCGAAGAAAUGCUCAGUGAUCAGAGACCGUCUAUACGUCGAUGGUGACUGCACAAUGGACAUCCGGACAAAGAGUCAAGGUGGGGAG: 0.128 ratio
GCACGUACAGCCCUGAAUGCAGGUGCAGUUUGGGUUUUUUGUUUUGUUUUGUUUUGUUUUAUCCGCCAGUGGGCAAAGUGAAAUGUAAUUUUGGGUAAGCCAGGGCUACUUUAGCUUUUC: 0.312 ratio

Set 4
Target: Interferon regulatory factor 3, full length, phosphomimetic (IRF3, Homo sapiens, UniProt Q14653, residues 1-427, S386D/S396D/S398D/S402D/T404D/S405D)
Technique: protein-binding microarray
Molecule type: double-stranded DNA, one strand shown
Medium: in vitro
Tested at: 2540 nM top
Notes: 60-bp whole probe
With: salmon DNA 0.4 mg/ml
Reference: random background probes
Reading: higher = stronger binding
Measurement: fitted relative affinity
All sequences stand within: GCCTAGCAC … GTCTTGATTCGCTTGACGCTGCTG
Residues (chain): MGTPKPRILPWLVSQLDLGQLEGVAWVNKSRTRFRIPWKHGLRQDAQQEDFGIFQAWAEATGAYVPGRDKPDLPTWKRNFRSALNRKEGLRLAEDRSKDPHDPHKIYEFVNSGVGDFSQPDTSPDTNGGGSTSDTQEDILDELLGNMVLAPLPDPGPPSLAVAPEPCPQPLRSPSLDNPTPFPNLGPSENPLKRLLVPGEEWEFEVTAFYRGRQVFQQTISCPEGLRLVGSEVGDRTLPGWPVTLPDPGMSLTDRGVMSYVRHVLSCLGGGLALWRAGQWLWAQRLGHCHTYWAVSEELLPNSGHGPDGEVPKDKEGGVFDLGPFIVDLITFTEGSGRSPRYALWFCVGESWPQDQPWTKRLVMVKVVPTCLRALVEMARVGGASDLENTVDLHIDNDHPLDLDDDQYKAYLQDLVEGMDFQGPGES
ATGACCTCACTGCCTGACACGTGCTAG: -0.15 z-score
TTAGATATCAGTATAGATTAGTGCTAG: 0.665 z-score
GACAGTCTCGGTATCGGGACGTGCTAG: 2.15 z-score
TTAGGAATCGGTCTCGGTTAGTGCTAG: 1.35 z-score
GACGATATTAGTATCGAGACGTGCTAG: 0.7 z-score
TTAGGACTGCTTATCCTTTGGTGCTAG: -0.221 z-score
GACGAGATCAGTCTCGAGACGTGCTAG: 0.528 z-score
TTAGGTCTCCTTATGCTTTAGTGCTAG: 1.7 z-score
GATGGTATCCTACTGCTGACGTGCTAG: 2.38 z-score
TTAGGACTGAGTTTCGGTTAGTGCTAG: 3.5 z-score
TCATCTTTTATGCTCTTACTGTGCTAG: 1.07 z-score
TCATCTTTCCAACTCTGACTGTGCTAG: 2.97 z-score
TTAGGTGTCGGGTTTCGGTTAGTGCTA: 3.6 z-score
TCAACTCTAATATTGAGACTGTGCTAG: 0.142 z-score
TTAGGTTCAGGTTTCGGTTAGTGCTAG: 4.2 z-score
TTAGGTATCGGGTTTCGCTTAGTGCTA: 2.69 z-score
CTTTTTTTCCGAGTGAGTAAGTGCTAG: 3.31 z-score
TTAGGTTTCGACTTTCGGTAAGTGCTA: 3.78 z-score
TCACTTATCCTATCAGTACTGTGCTAG: 1.79 z-score
TTATGACTGCTTTTCCTTTAGTGCTAG: 0.868 z-score
GGAGGCTCTTGCTACTGAAGGTGCTAG: -1.33 z-score

Set 5
Target: ABI1, truncated, D143A, DHFR fusion (Arabidopsis thaliana)
Technique: DHFR PCA, deep sequencing
Medium: yeast
Notes: methotrexate growth selection, single substitutions
With: (+)-ABA 1.4 µM
Reference: wild-type fitted maximum
Reading: higher = stronger binding
Measurement: relative binding score
Starting sequence: PYL1, truncated, DHFR fusion (Arabidopsis thaliana); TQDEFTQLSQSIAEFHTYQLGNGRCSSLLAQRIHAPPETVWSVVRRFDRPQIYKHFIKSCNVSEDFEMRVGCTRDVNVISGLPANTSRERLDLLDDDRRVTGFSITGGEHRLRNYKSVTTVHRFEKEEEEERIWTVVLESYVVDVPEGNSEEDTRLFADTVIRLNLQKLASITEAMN
P50G: -8.32%
N22C: 40.8%
I12L: 11.1%
R98V: 17%
A30D: 8.64%
Q51Y: -9.45%
T73N: 11.4%
T120P: -3.42%
V161H: 30.5%
A84E: 14.7%
A35T: -2.68%
N114G: 45%
E109R: 12.7%
Y141W: -15%
E14P: -8.97%
F66G: 51.8%

Excerpt of the above (set 5):
T120P: -3.42%
A30D: 8.64%
F66G: 51.8%
Q51Y: -9.45%
N22C: 40.8%
P50G: -8.32%
N114G: 45%
A84E: 14.7%
V161H: 30.5%
A35T: -2.68%
E109R: 12.7%
R98V: 17%
Y141W: -15%
E14P: -8.97%
T73N: 11.4%
I12L: 11.1%
